Assay results from different studies.
± marks the error that the study gave.
B1: cipA 183-322 (Clostridium thermocellum, UniProt Q06851); sequence looked up; chain GVVVEIGKVTGSVGTTVEIPVYFRGVPSKGIANCDFVFRYDPNVLEIIGIDPGDIIVDPNPTKSFDTAIYPDRKIIVFLFAEDSGTGAYAITKDGVFAKIRATVKSSAPGYITFDEVGGFADNDLVEQKVSFIDGGVNVG
B2: dinB (Escherichia coli, UniProt Q47155); sequence looked up; chain MRKIIHVDMDCFFAAVEMRDNPALRDIPIAIGGSRERRGVISTANYPARKFGVRSAMPTGMALKLCPHLTLLPGRFDAYKEASNHIREIFSRYTSRIEPLSLDEAYLDVTDSVHCHGSATLIAQEIRQTIFNELQLTASAGVAPVKFLAKIASDMNKPNGQFVITPAEVPAFLQTLPLAKIPGVGKVSAAKLEAMGLRTCGDVQKCDLVMLLKRFGKFGRILWERSQGIDERDVNSERLRKSVGVERTMAEDIHHWSECEAIIERLYPELERRLAKVKPDLLIARQGVKLKFDDFQQTTQEHVWPRLNKADLIATARKTWDERRGGRGVRLVGLHVTLLDPQMERQLVLGL
B3: MIF4GD R202A (Homo sapiens, UniProt A9UHW6); sequence looked up; chain MGEPSREEYKIQSFDAETQQLLKTALKDPGAVDLEKVANVIVDHSLQDCVFSKEAGRMCYAIIQAESKQAGQSVFRRGLLNRLQQEYQAREQLRARSLQGWVCYVTFICNIFDYLRVNNMPMMALVNPVYDCLFRLAQPDSLSKEEEVDCLVLQLHRVGEQLEKMNGQRMDELFVLIRDGFLLPTGLSSLAQLLLLEIIEFAAAGWKTTPAAHKYYYSEVSD
B4: CRYBB1 99-252 (Homo sapiens, UniProt P53674); sequence looked up; chain GPWVAFEQSNFRGEMFILEKGEYPRWNTWSSSYRSDRLMSFRPIKMDAQEHKISLFEGANFKGNTIEIQGDDAPSLWVYGFSDRVGSVKVSSGTWVGYQYPGYRGYQYLLEPGDFRHWNEWGAFQPQMQSLRRLRDKQWHLEGSFPVLATEPPK
B5: Scn2a 1080-1203 (UniProt P04775); CK2-phosphorylated; sequence looked up; chain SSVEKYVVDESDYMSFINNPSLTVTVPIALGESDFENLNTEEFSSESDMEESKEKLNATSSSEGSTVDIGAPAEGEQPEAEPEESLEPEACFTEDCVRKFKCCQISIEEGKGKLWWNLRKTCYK
B6: UGT1A9 (Homo sapiens, UniProt O60656); chain GKLLVVPMDGSHWFTMRSVVEKLILRGHEVVVVMPEVSWQLGRSLNCTVKTYSTSYTLEDLDREFKAFAHAQWKAQVRSIYSLLMGSYNDIFDLFFSNCRSLFKDKKLVEYLKESSFDAVFLDPFDNCGLIVAKYFSLPSVVFARGILCHYLEEGAQCPAPLSYVPRILLGFSDAMTFKERVRNHIMHLEEHLLCHRFFKNALEIASEILQTPVTEYDLYSHTSIWLLRTDFVLDYPKPVMPNMIFIGGINCHQGKPLPMEFEAYINASGEHGIVVFSLGSMVSEIPEKKAMAIADALGKIPQTVLWRYTGTRPSNLANNTILVKWLPQNDLLGHPMTRAFITHAGSHGVYESICNGVPMVMMPLFGDQMDNAKRMETKGAGVTLNVLEMTSEDLENALKAVINDKSYKENIMRLSSLHKDRPVEPLDLAVFWVEFVMRHKGAPHLRPAAHDLTWYQYHSLDVIGFLLAVVLTVAFITFKCCAYGYRKCLGKKGRVKKAHKSKTH
B7: IL34 19-242 (Homo sapiens, UniProt Q6ZMJ4); sequence looked up; chain LGNEPLEMWPLTQNEECTVTGFLRDKLQYRSRLQYMKHYFPINYKISVPYEGVFRIANVTRLQRAQVSERELRYLWVLVSLSATESVQDVLLEGHPSWKYLQEVETLLLNVQQGLTDVEVSPKVESVLSLLNAPGPNLKLVRPKALLDNCFRVMELLYCSCCKQSSVLNWQDCEVPSPQSCSPEPSLQYAATQLYPPPPWSPSSPPHSTGSVRPVRAQGEGLLP
B8: BicD F684I (Drosophila melanogaster, UniProt P16568); chain MSSASNNGPSADQSVQDLQMEVERLTRELDQVSSASAQSAQYGLSLLEEKSALQQKCEELETLYDNTRHELDITQEALTKFQTSQKVTNKTGIEQEDALLNESAARETSLNLQIFDLENELKQLRHELERVRNERDRMLQENSDFGRDKSDSEADRLRLKSELKDLKFRETRMLSEYSELEEENISLQKQVSSLRSSQVEFEGAKHEIRRLTEEVELLNQQVDELANLKKIAEKQMEEALETLQGEREAKYALKKELDGHLNRESMYHISNLAYSIRSNMEDNASNNSDGEEENLALKRLEADLSTELKSPDGTKCDLFSEIHLNELKKLEKQLESMESEKTHLTANLREAQTSLDKSQNELQNFMSRLALLAAHVDALVQLKKQIDVKEQGKEGGQKKDELEQQLRALISQYANWFTLSAKEIDGLKTDIAELQKGLNYTDATTTLRNEVTNLKNKLLATEQKSLDLQSDVQTLTHISQNAGQSLGSARSTLVALSDDLAQLYHLVCTVNGETPTRVLLDHKTDDMSFENDSLTAIQSQFKSDVFIAKPQIVEDLQGLADSVEIKKYVDTVSDQIKYLKTAVEHTIDMNKHKIRSEGGDALEKVNTEEMEELQEQIVKLKSLLSVKREQIGTLRNVLKSNKQTAEVALTNLKSKYENEKIIVSDTMSKLRNELRLLKEDAATISSLRAMFAARCEEYVTQVDDLNRQLEAAEEEKKTLNQLLRLAVQQKLALTQRLEEMEMDREMRHVRRPMPAQRGTSGKSSFSTRPSSRNPASSNANPF

| Molecule | tested on | assay | test system | setting | scale | quantity | result |
| --- | --- | --- | --- | --- | --- | --- | --- |
| B1 (cipA 183-322) | celS dockerin module 673-739, 15N label (Clostridium thermocellum, UniProt A3DH67) | ITC | – | pH 4.8, 298 K, KCl 100 mM, single-site model, added: CaCl2 5 mM | – | molecule per partner | 0.94 ± 0.002 |
| slmb (Drosophila) | plk4 S293A (Drosophila melanogaster, UniProt O97143) | densitometry of anti-FLAG blot | – | – | relative to: WT-Plk4, higher = more ubiquitination | ubiquitination | 10 fold |
| B2 (dinB) | dnaN 1-366 148-152 to poly-Ala (Escherichia coli, UniProt P0A988) | SPR | – | pH 7.4, NaCl 150 mM | – | koff | 0.00304 s⁻¹ |
| RASA1 minimal catalytic domain | HRAS 1-166 (Homo sapiens, UniProt P01112) | GAP-mediated GTP hydrolysis | – | 25 °C | – | GTP hydrolysis rate | 0.00206 s⁻¹ |
| COLGALT1 fragment (Homo sapiens) | PLOD3 (Homo sapiens, UniProt O60568) | cross-linking | – | – | relative to: Trp158Arg mutant, higher = more cross-link | cross-link abundance | 7 fold |
| ClpP mature (Escherichia coli, UniProt P0A6G7) | clpX (Escherichia coli, UniProt P0A6H1) | rhodamine-FP modification | – | added: ATPγS | relative to: ClpP alone, higher = faster modification | active-site modification rate | 3 fold |
| B3 (MIF4GD R202A) | SLBP, phosphorylated, multiple sites (Homo sapiens, UniProt Q14493) | SPR | – | pH 7.4, 25 °C, NaCl 150 mM | relative to: wild type, higher = weaker binding | relative KD | > 100 |
| SQSVLYS | – | – | peptide, human polyclonal IgM RF CLAU | concentration not given, 5 µg/mL mAb II-481 coated, added: RF at 50% max binding concentration | – | inhibition | 10% |
| B4 (CRYBB1 99-252) | CRYBA1, Alexa Fluor 488 label (Homo sapiens, UniProt P05813) | FRET | – | pH 7.5, 37 °C, 100 mM NaCl | – | subunit exchange rate | 0.0111 ± 0.0022 min⁻¹ |
| B5 (Scn2a 1080-1203) | Ank3 1-981 (Rattus norvegicus, UniProt O70511) | SPR | – | pH 7.4, 25 °C, NaCl 150 mM | – | koff | 0.0021 s⁻¹ |
| B6 (UGT1A9) | O=c1c(O)c(-c2cccc(O)c2)oc2cc(O)ccc12 | steady-state kinetics | – | pH 7.4, 37 °C | – | Km | 3.37 µM |
| B7 (IL34 19-242) | CSF1R Fc fusion D1-D5 20-512 (Homo sapiens, UniProt P07333) | SPR | – | pH 7.4, NaCl 0.15 M | – | koff | 0.0004 s⁻¹ |
| YGIGVGW | – | – | peptide, human polyclonal IgM RF LOP | concentration not given, 5 µg/mL mAb II-481 coated, added: RF at 50% max binding concentration | – | inhibition | 12% |
| B8 (BicD F684I) | DYNC1H1/DYNC1I2/DYNC1LI2/DYNLT1/DYNLRB1/DYNLL1 (Homo sapiens) | single-molecule TIRF | – | – | – | run length | 3.3 µm |

Excerpt of the above:
| Molecule | tested on | assay | test system | setting | scale | quantity | result |
| --- | --- | --- | --- | --- | --- | --- | --- |
| B3 (MIF4GD R202A) | SLBP, phosphorylated, multiple sites (Homo sapiens, UniProt Q14493) | SPR | – | pH 7.4, 25 °C, NaCl 150 mM | relative to: wild type, higher = weaker binding | relative KD | > 100 |
| COLGALT1 fragment (Homo sapiens) | PLOD3 (Homo sapiens, UniProt O60568) | cross-linking | – | – | relative to: Trp158Arg mutant, higher = more cross-link | cross-link abundance | 7 fold |
